# Experimental data pooled from the literature.
# Parts stem from different laboratories: compare values within a part only.

# Block 1 — technique: universal PBM; molecule type: double-stranded DNA, one strand shown; matrix: in vitro; concentration: 600 nM; reading: higher = stronger binding
# Target: Sal-like protein 4, full length isoform A (SALL4, Homo sapiens, UniProt Q9UJQ4, residues 1-1053)
# UniProt Q9UJQ4, sequence (whole entry, looked up): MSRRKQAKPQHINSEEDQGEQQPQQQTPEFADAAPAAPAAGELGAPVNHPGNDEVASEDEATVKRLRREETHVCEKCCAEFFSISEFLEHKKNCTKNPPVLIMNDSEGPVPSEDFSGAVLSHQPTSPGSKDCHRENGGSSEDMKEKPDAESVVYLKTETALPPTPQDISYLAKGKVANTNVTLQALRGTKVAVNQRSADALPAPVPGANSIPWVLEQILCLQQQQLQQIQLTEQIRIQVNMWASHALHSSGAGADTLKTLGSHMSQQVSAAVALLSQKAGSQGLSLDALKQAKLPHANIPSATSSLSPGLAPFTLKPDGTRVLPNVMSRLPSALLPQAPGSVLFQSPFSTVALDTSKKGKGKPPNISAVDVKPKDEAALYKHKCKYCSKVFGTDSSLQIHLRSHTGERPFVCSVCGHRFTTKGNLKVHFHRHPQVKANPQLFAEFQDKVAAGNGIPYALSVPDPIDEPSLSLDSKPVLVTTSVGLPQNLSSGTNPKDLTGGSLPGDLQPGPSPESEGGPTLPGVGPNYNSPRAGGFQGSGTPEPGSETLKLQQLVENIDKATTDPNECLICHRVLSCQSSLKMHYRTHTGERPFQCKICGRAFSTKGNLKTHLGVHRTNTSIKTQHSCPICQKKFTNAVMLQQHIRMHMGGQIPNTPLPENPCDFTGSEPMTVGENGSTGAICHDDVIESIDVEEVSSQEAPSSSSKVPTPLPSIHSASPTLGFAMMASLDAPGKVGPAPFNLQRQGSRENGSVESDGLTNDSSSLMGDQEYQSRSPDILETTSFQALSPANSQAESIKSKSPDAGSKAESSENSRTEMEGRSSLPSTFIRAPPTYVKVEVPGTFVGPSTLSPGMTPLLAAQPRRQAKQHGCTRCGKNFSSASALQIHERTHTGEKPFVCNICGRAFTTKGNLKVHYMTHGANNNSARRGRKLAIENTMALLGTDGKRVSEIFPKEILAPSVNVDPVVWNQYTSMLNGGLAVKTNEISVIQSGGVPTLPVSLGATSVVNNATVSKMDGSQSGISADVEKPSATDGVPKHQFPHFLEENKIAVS
# Notes: 8-mer, flanks averaged, mean of replicates
Strand,E-score
AGGACTGG,-0.0925
AAGATGGC,0.0355
AAGGCATA,0.193
CTTCGTTA,0.127
CTCGTCGA,-0.127
AGGACCAT,-0.156

# Block 2 — technique: protein binding microarray; molecule type: double-stranded DNA, one strand shown; matrix: in vitro; concentration: not given; reference: not given; reading: higher = stronger binding
# Target: Histone acetyltransferase KAT6A, winged helix 2, GST fusion (KAT6A, Homo sapiens, UniProt Q92794, residues 85-181)
# Notes: 8-mer, flanks averaged, mean of 2 arrays, mostly near background
# Target sequence (chain): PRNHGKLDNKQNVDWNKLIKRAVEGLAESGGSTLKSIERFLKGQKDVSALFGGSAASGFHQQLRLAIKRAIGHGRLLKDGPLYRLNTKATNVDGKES
Strand,E-score
CATGTGGA,-0.146
AACTCTAA,-0.0371
GTCCAAAC,-0.075
GCCTCGCA,0.0612
ACTTTACC,-0.0435

# Block 3 — technique: RNA Bind-n-Seq; molecule type: RNA; matrix: in vitro; concentration: 365 nM; reference: no-protein control; reading: higher = stronger binding
# Target: RNA binding protein fox-1 homolog 2, RRM domain, GST-SBP tag (RBFOX2, Homo sapiens, UniProt O43251-10, residues 100-194)
# Notes: natural RNA segment, single round, ends assumed
# All sequences stand within: GGGAGUUCUACAGUCCGACGAUC … UGGAAUUCUCGGGUGCCAA
Strand,RBNS enrichment (R)
CCCCACCCCGCAAUUCCGCCAAAGCCAAGAAAUAGCCCCCGCACACCACCCUGUGCCCCAGAUGAUGGAUUGAUUGUACAGAAAUCAUGCUGCCAUGCUGGGGGGGGGUC,0.755
CAAAUAUGAGUGUGUGGAUGCUUUAAUUCAUUUAACCUCACUCCUCAAAGGUAACAUGCAACUUAGUUCUGUUAUAUGAGAGUCUUUUUCUUUAAUGUACUGGAAAAAGC,0.366
UCAGUGAUUCGCUUUUGGUAUUUGUUUGUAGCUUUCCUGGAAGUCAAAUAAAUGUUUCCCCCACUCCUUGCCCUUCCACUUGUCUUUUCUCCGAGGGGUCUGCCUCUCCC,0.538
AUAAACAAAUUGUUCAAUUUUAGGAAUUCCCCGUUACCUCCACAGUCAGUUGUGAGGGCCUGAUUAGACUCUGGAGCAUGGUGUACGACUCUUCUCCAAGAGCGCAUGCA,2.1
AGAUGCCAAGCCCCGGGGUCUCACCAAAGCAGACAUAGAGCAGCUCCCGUCGUACCGCUUUAACCCGGACAGCCAUCAGUCGGAGCAGACGCGGUGUGUGGUCUGCUUCA,0.468
AAGCAUAUCUACCCAUGGCGGAAAAUGAAGUCAGAAAGAUUUGUAGUGACAUUAGGCAGAAAUGGCCAGUCAAACACAUAGCAGUGUUCCAUAGACUUGGUAGAAUGGUC,0.426
UAGAUGGUAUAACAUUUGAAAAUAUUGUCUUAUGUGAUUUUUUCCCCUGAAAAUAUUUGCUUGUAAAUGAAAACUUAGCUAGGGCUUAAAUAAACAUGUUGCUAUGAAAU,1.79

# Further values, each from its own experiment
Molecule,target,assay,system,setting,scale,quantity,value
"PhoQ, residues 284 288 289 292 302 303 MLMVEA","PhoP, residues 12 14 15 18 19 LFHKL (Escherichia coli, UniProt P23836)","Sort-seq, measured: YFP reporter",E. coli,"PhoQ-PhoP variant library, with: 10 µM Mg2+","reference: high Mg2+ state, higher = stronger signaling",fold induction,2.19

# A few entries again (block 3):
Strand,RBNS enrichment (R)
AUAAACAAAUUGUUCAAUUUUAGGAAUUCCCCGUUACCUCCACAGUCAGUUGUGAGGGCCUGAUUAGACUCUGGAGCAUGGUGUACGACUCUUCUCCAAGAGCGCAUGCA,2.1
CCCCACCCCGCAAUUCCGCCAAAGCCAAGAAAUAGCCCCCGCACACCACCCUGUGCCCCAGAUGAUGGAUUGAUUGUACAGAAAUCAUGCUGCCAUGCUGGGGGGGGGUC,0.755
